Published values from different studies.
Compare with care: the assays were run in different laboratories. ± marks the error that the study gave.
Histone acetyltransferase RTT109 with Vps75: Histone acetyltransferase RTT109, with Vps75 (Saccharomyces cerevisiae, UniProt Q07794)
uncharacterized protein: uncharacterized protein (Saccharopolyspora erythraea, UniProt A4F7P9)

`N[C@@H]1C[C@]1(F)c1ccc(C(F)(F)F)cc1` (relative stereo) gave a Ki of 1.3 ± 0.3 µM (tyramine oxidase (Arthrobacter sp.); enzyme activity, competitive inhibitor, Lineweaver-Burk plot).
`O=C(NNC1CC(=O)N(c2ccc(Br)cc2)C1=O)c1ccc(-n2cccc2)cc1` (stereo not shown) gave an IC50 of greater than 125 µM (Histone acetyltransferase RTT109 with Vps75; enzyme activity, inhibitor, HTS, CPM-based, dose response).
For `CCCCCCCCSc1ccc(C(=O)Nc2ccc(C)cc2C(=O)O)cc1`, the DC50 was 13 ± 1.7 µM (PLK1 (Homo sapiens, UniProt P53350); degrader, western blot; PC-3; 23 h).
`CCCSc1nsc(NC(=O)CN2CCN(c3ccccc3)CC2)n1` has an IC50 of greater than 125 µM (Histone acetyltransferase RTT109 with Vps75; enzyme activity, inhibitor, HTS, CPM-based, dose response).
With `O=C(O)CCC(=O)C(=O)O` the Ki was 177 ± 7 µM (gltA (Klebsiella pasteurii, UniProt A0A9Q9S525)).
`O=C(NNC1CC(=O)N(c2ccc(Br)cc2)C1=O)c1cccc(F)c1` (stereo not shown) gave an IC50 of greater than 125 µM (Histone acetyltransferase RTT109 with Vps75; enzyme activity, inhibitor, HTS, CPM-based, dose response).
With `O=C(Nc1ccc([N+](=O)[O-])cc1Cl)c1cc(Cl)ccc1O` the EC50 was 5.66 ± 0.91 µM (Anoctamin-1 (Ano1, Mus musculus, UniProt Q8BHY3, R605A); chloride current, whole-cell patch clamp; HEK-293T TMEM16F knockout).
For `Nc1ncnc2c1ncn2[C@@H]1O[C@H](COP(=O)(O)OP(=O)(O)OP(=O)(O)O)[C@@H](O)[C@H]1O`, the EC50 was 0.76 µM (P2X purinoceptor 1 (P2RX1, Homo sapiens, UniProt P51575); ion current, agonist, two-electrode voltage clamp; Xenopus oocytes).
`COc1cc(Nc2ncc3c(n2)-c2ccc(Cl)cc2C(c2c(F)cccc2OC)=NC3)ccc1C(=O)NCCOCCOCCNC(=O)COc1cccc2c1C(=O)N(C1CCC(=O)NC1=O)C2=O` (stereo not shown) has an EC50 of greater than 30 µM (PTK2 (Homo sapiens, UniProt Q05397); binding, kinobead competition; MV4-11 cell lysate).
For `C[C@H](O)[C@@H](O)[C@@H](O)[C@H](O)C=O`, the Ki was 0.49 ± 0.07 µM (fucose-binding lectin LecB (Pseudomonas aeruginosa, UniProt A0A0H2ZE85)).
For `C/C=C/C(=O)CCCCCC(=O)N1CCN(c2nc(-c3cnc(N)nc3C(F)F)nc(N3CCOCC3)n2)CC1`, the Ki was 0.012 µM (PIK3CA (Homo sapiens, UniProt P42336)).
The DC50 of `CC[C@H](C(=O)N1CCCC[C@H]1C(=O)O[C@H](CCc1ccc(OC)c(OC)c1)c1ccccc1OCC(=O)NCCCCCCC(=O)N[C@H](C(=O)N1C[C@H](O)C[C@H]1C(=O)N[C@@H](C)c1ccc(-c2scnc2C)cc1)C(C)(C)C)c1cc(OC)c(OC)c(OC)c1` is reported as roughly 0.1 µM (FKBP1A (Homo sapiens, UniProt P62942, F37V); luminescence; HEK293T stably expressing target; 6 h).
`NC1CC1(F)c1ccc(Cl)cc1` (stereo not shown) gave a Ki of 0.91 ± 0.01 µM (tyramine oxidase (Arthrobacter sp.); enzyme activity, competitive inhibitor, Lineweaver-Burk plot).
The IC50 of `Cc1c(Cl)cccc1NC(=O)N1CCCN(c2nc(-c3ccccc3)ns2)CC1` is reported as greater than 125 µM (Histone acetyltransferase RTT109 with Vps75; enzyme activity, inhibitor, HTS, CPM-based, dose response).
The Ki of `OC[C@H]1OC(O)[C@H](O)[C@@H](O)[C@@H]1O` (stereo partly shown) is reported as 12000 ± 3000 µM (Hexokinase-3 (HK3, Homo sapiens, UniProt P52790, E254A); substrate inhibition; mutant E254A, complete substrate inhibition model, with: ATP 20 mM).
`C#CCCCCC(F)=C1O[C@H](CO)[C@@H](O)[C@H](O)[C@H]1O` gave a Ki of 148 ± 16 µM (uncharacterized protein; inhibitor; pH 7.6, 20 °C, with: p-nitrophenyl-β-D-glucopyranoside).
`Nc1ccn([C@@H]2O[C@H](COP(=O)(O)OP(=O)(O)O)[C@@H](O)[C@H]2O)c(=O)n1` gave a Kd of 3.7 ± 0.2 µM (RNASE1 (Bos taurus, UniProt P61823); binding, native mass spectrometry; surface-deposited protein; 10-fold diluted).
For `COc1cc(C)[nH]c(=O)c1CN1CCc2c(Cl)cc([C@H](OC)C3COC3)c(Cl)c2C1=O`, the Ki was 5.4e-06 µM (EZH2 (Homo sapiens, UniProt Q15910); DSF, extrapolated from Tm; PRC2 with activator peptide).
`c1ccc2nsnc2c1` gave an IC50 of greater than 125 µM (Histone acetyltransferase RTT109 with Vps75; enzyme activity, inhibitor, HTS, CPM-based, dose response).
With `NCc1cc2c(cc1F)C(=O)N(C1CCC(=O)NC1=O)C2` (stereo not shown) the DC50 was 0.009 µM (NEK7/CRBN (Homo sapiens, UniProt Q8TDX7+Q96SW2); degrader, Western blot; Hep3B; 24 h).
For `Cc1ccc(-c2n/c(=N\C(=O)c3ccc([N+](=O)[O-])cc3)sn2Cc2ccccc2)cc1`, the IC50 was greater than 125 µM (Histone acetyltransferase RTT109 with Vps75; enzyme activity, inhibitor, HTS, CPM-based, dose response).
`CC[C@H]1OC(=O)[C@H](C)[C@@H](O[C@H]2C[C@@](C)(OC)[C@@H](O)[C@H](C)O2)[C@H](C)[C@@H](O[C@@H]2O[C@H](C)C[C@H](N(C)C)[C@H]2O)[C@](C)(O)C[C@@H](C)CN(C)[C@H](C)[C@@H](O)[C@]1(C)O` gave a Ki of 440 ± 50 µM (uncharacterized protein; inhibitor; pH 7.6, 20 °C, with: p-nitrophenyl-β-D-glucopyranoside).
`O=S(=O)(NCc1ccccc1)c1ccc2nsnc2c1` has an IC50 of greater than 125 µM (Histone acetyltransferase RTT109 with Vps75; enzyme activity, inhibitor, HTS, CPM-based, dose response).
`CC[C@H](C)[C@H](NC(=O)[C@H](Cc1ccc(OP(=O)(O)O)cc1)NC(=O)[C@H](CC(N)=O)NC(=O)[C@H](CC(C)C)NC(=O)[C@@H](N)CO)C(=O)N[C@@H](CC(=O)O)C(=O)N[C@@H](CC(C)C)C(=O)N[C@@H](CC(=O)O)C(=O)N[C@@H](CC(C)C)C(=O)N[C@H](C(=O)N[C@@H](CCCCN)C(=O)O)C(C)C` gave an EC50 of 3 ± 0.4 µM (PTPN11 (Homo sapiens, UniProt Q06124, R111D/S502P); enzyme activity, activator; pH 7.0, 2% DMSO, with: DiFMUP 100 µM, phosphopeptide).
`CCC(C)(C)C(=O)C(=O)N1CCC[C@H]1C(=O)OCCCc1cccnc1` has a Ki of 3.1 µM (FKBP1A (Homo sapiens, UniProt P62942); enzyme activity, inhibitor, PPIase; 10 °C).
The Ki of `CNC(=O)[C@@]12C[C@@H]1[C@@H](n1cnc3c(NC)nc(C#C[c-]4cccc4)nc31)[C@H](O)[C@@H]2O.[Fe+2].c1cc[cH-]c1` is reported as 0.858 µM (ADRA2C (Homo sapiens, UniProt P18825); radioligand binding).
`O=C(NNC1CC(=O)N(c2ccc(Br)cc2)C1=O)c1cccnc1` (stereo not shown) gave an IC50 of greater than 125 µM (Histone acetyltransferase RTT109 with Vps75; enzyme activity, inhibitor, HTS, CPM-based, dose response).
`CC[C@@H]1[C@H](F)C(=O)N[C@@H]1COc1nccc2cc(C(N)=O)c(OC)cc12` has an IC50 of greater than 5 µM (ATR (Homo sapiens, UniProt Q13535); ATP probe binding, KiNativ profiling, measured: ATP probe site; THP-1 cell lysate).
